{"data": "Assay results pooled from the literature", "note": "Each numbered part is a random draw from the data of one study; scales do not carry over between parts. Changes are numbered by the printed parent chain."}
{"data": "Block 1", "target": "CCNA2, cyclin fold, Cln2 fusion (human)", "technique": "yeast growth competition, sequencing", "matrix": "yeast", "setting": "strong parent motif", "baseline": "not given", "reading": "higher = stronger binding", "parent": "RBL1 docking peptide (human); GSAKRRLFGEDPP"}
{"Change": "GSAKRRLMGEDPP [F8M]", "normalised enrichment score": 0.174}
{"Change": "GTAKRRLFGEDPP [S2T]", "normalised enrichment score": 5.7}
{"Change": "GSAKRRLFMEDPP [G9M]", "normalised enrichment score": 6.14}
{"Change": "GSAKRRGFGEDPP [L7G]", "normalised enrichment score": 0.575}
{"Change": "GSWKRRLFGEDPP [A3W]", "normalised enrichment score": 2.98}
{"Change": "GSAWRRLFGEDPP [K4W]", "normalised enrichment score": 2.09}
{"Change": "GSAKRRLFGPDPP [E10P]", "normalised enrichment score": 6.16}
{"Change": "GSAKRNLFGEDPP [R6N]", "normalised enrichment score": 4.73}
{"Change": "GSPKRRLFGEDPP [A3P]", "normalised enrichment score": 1.47}
{"Change": "GSAKKRLLGEDPP [R5K F8L]", "normalised enrichment score": 0.571}
{"Change": "GSAKRRLFGNDPP [E10N]", "normalised enrichment score": 5.47}
{"Change": "GMAKRRLFGEDPP [S2M]", "normalised enrichment score": 5.54}
{"Change": "GSAKRRLFGEDPS [P13S]", "normalised enrichment score": 5.58}
{"Change": "GSATRRLFGEDPP [K4T]", "normalised enrichment score": 1.86}
{"Change": "GSAKRRLHGEDPP [F8H]", "normalised enrichment score": 0.461}
{"Change": "GSAKRPLFGEDPP [R6P]", "normalised enrichment score": 0.482}
{"data": "Block 2", "target": "RNA binding protein fox-1 homolog 2, RRM domain, GST-SBP tag (RBFOX2, Homo sapiens, UniProt O43251-10, residues 100-194)", "technique": "RNA Bind-n-Seq", "form": "RNA", "matrix": "in vitro", "tested at": "365 nM", "setting": "natural RNA segment, single round, ends assumed", "baseline": "no-protein control", "reading": "higher = stronger binding", "shared flanks, not repeated": "GGGAGUUCUACAGUCCGACGAUC … UGGAAUUCUCGGGUGCCAA", "Construct (chain)": "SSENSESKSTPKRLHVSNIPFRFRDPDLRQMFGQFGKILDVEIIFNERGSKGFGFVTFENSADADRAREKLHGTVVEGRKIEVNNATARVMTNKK"}
{"Sequence": "AGAAAGAAAAAGGAAAAAUCCAAAAUAUCUCAGUAUCAUCUGUCUGAAGCAUUGUGUGUUCUCAUUCGGGUGGUAACAAUGUAUGUGUAAUAUUUUUUUCUUAGUGAUUU", "RBNS enrichment (R)": 0.464}
{"Sequence": "UCUGGGUCUAAAGCUCAGCACUGAGUCACAAUUUCACACAAGAUCAAAGUGAGGCAGUGUUAGGAAACCAUGGGCUGGGUGCAGUGCCUCUCGCCUGUAAUCGUAGCACU", "RBNS enrichment (R)": 0.275}
{"Sequence": "GUUAGCACUGAUAGUCCUUUUUCCAAUGUUUUAUUGGGGAAUUAAAUAGUGUGAUGUUUGGAUUGAUAUCGUGAAAUCCUCAGCCGAGAAAUUGGGCUGGAUUGUGCUUU", "RBNS enrichment (R)": 0.5}
{"Sequence": "GAAAUGAAAUUAAAUGAGAUUACAGCAUAAUGAAGAAGAAAACUAGAAUCUAACAGGUAUGACACAUUCAGUUAUUCUAACAGGGCACAGUACUGUGCUAUAUGUAGCCG", "RBNS enrichment (R)": 1.26}
{"Sequence": "GGGCCAGAUGGAGAGCAGAUGUGGCAGGAAAUGGCACAGAGCUGAGUGAGGAGAAUGGGGAGUCCAUGGUUCAAGGUCAGAUGCGGCCACCAGCUGGCUUUGUGACCUUG", "RBNS enrichment (R)": 0.808}
{"Sequence": "GCCUGAUUUCGUCCAUAUUCUAGACUCUUAAGCUUGUCAAAUUCCAGAAAUGGAAAAAACUCUGCAAGAGAGUCUUGCUUUCAAGGAGAAAGGAAAAUGGCUUUGAAAAU", "RBNS enrichment (R)": 0.892}
{"Sequence": "GGCUAGAGGAGUGGCAUCUGGAGCUCAGAAACGUGAGAGACUAUUUGUGUACAAAAGGCAGGAAAAAGUAUUUGAUACCACUGUACAUAAGAGUUUUCAGAGAUUUCAUA", "RBNS enrichment (R)": 0.799}
{"Sequence": "CAAUUUUAAACAUGUAAAAUGGAUAUAUAAUUUGCCAAAGGUAAUUAAUUUAUUCUUUUUUUCUUAAAGAAGAAAAAGACAUUGGUUGUUGUUACAAAAAGUCUAAAUUA", "RBNS enrichment (R)": 0.618}
{"data": "Block 3", "target": "Fragile X messenger ribonucleoprotein 1, C-terminal low-complexity region (Fmr1, Mus musculus, UniProt P35922)", "technique": "RNA Bind-n-Seq", "form": "RNA", "matrix": "in vitro", "tested at": "200 nM", "setting": "whole 134-nt RNA, ends assumed", "together with": "150 mM KCl", "baseline": "input library", "reading": "higher = stronger binding", "shared flanks, not repeated": "GGGAGUUCUACAGUCCGACGAUC … UGGAAUUCUCGGGUGUCAAGG"}
{"Sequence": "GCAGGAAGUAAAAACAAAUGGAAAUGCUUCCGAUAGUGGCAGGGGUGGGGGUUGCUAAGGAAAGGGUGGGAUGGGAGUGGGUAAAGAGUU", "log2 enrichment": 0.169}
{"Sequence": "ACCAUGCAGGUGGGCAUCUUUGGGAAGUGGGGCAAGGGGGGGAUAGGGAGGGGGGUAACACUUUGGGAACAGGUGGUCCCAGGUCGGUUC", "log2 enrichment": 0.8}
{"Sequence": "AGUCCUGUGCUACACAUCGUAUGUACCGAAUCAAACCCAAACCCCCAAACCCCCAAAAAAGUAUUAUGUUACGCCGUUCGGAUCUGCACU", "log2 enrichment": -0.332}
{"Sequence": "GCAGGAAGUAAAAACAAAUGGAAAAGCUUCGGAUAGUGGCAGGGGUGGGGGUUGCUAAGGAAAGGGUGGGAUGGGAGUGGGUAAAGAGUU", "log2 enrichment": 0.133}
{"Sequence": "GCAGGAAGUAAAAACAAAUGGAAAUGCUUCGGAUAAAAGCAGGGGUGGGGGUUGCUAAGGAAAGGGUGGGAUGGGAGUGGGUAAAGAGUU", "log2 enrichment": 0.362}
{"Sequence": "GUCCUGUGCUACACAUCGUAUGUACCGAAUCGGGUUUUUUUGGGAAAAAAAGGGAGGGAAAGUAUUAUGUUACGCCGUUCGGAUCUGCAC", "log2 enrichment": 0.156}
{"Sequence": "CUGUGCUACACAUCGUAUGUACCGAAUCGGGGCCCCCCGGGGCCCCCCGGGGCCCCCCGGGAAAGUAUUAUGUUACGCCGUUCGGAUCUG", "log2 enrichment": -1.11}
{"Sequence": "CACAGACAACACGCACCCACACAGACACGGAGGGAAGGGGUUGGGAUGGGGACAGGGUGCACAGCAGGGCGGGGUAGGACCCCAGCCCCU", "log2 enrichment": 1.25}
{"Sequence": "UUCCGCGACUACCGGCGUGUGCACAAGCCGCCCAAGGUGCAGGAGAAGUGCCAGCUGGAGAUCAACUUCAACACGCUGCAGACCAAGCUG", "log2 enrichment": -1.3}
{"data": "Block 4", "target": "RING finger protein unkempt homolog, zinc fingers 1-6, SBP tag (UNK, Homo sapiens, UniProt Q9C0B0, residues 30-357)", "technique": "RNA Bind-n-Seq", "form": "RNA", "matrix": "in vitro", "tested at": "100 nM", "setting": "RNA with constant flanks, vertebrate orthologous sites, ends assumed", "baseline": "input RNA pool", "reading": "higher = stronger binding", "shared flanks, not repeated": "GGGAGUUCUACAGUCCGACGAUC … CAACAGAGGAUUGAGCAUCA", "sequence of UniProt Q9C0B0 (30-357, looked up)": "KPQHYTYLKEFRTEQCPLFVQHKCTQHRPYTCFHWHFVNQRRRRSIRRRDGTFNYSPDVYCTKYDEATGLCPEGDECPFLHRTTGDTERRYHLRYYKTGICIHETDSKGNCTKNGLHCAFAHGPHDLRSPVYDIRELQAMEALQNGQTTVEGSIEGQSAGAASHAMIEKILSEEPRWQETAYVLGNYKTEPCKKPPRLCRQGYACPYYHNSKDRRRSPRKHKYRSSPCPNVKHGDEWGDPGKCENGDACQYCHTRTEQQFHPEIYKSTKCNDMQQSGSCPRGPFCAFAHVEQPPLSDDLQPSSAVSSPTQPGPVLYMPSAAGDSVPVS"}
{"Sequence": "UGAAAAUAGCUUCUGCUCCAUUGAGAGUAAAAAUAGUCCCAUGAAUAGAAAACUCCUAAGUAACUAUUUUUUGAAUAAAAAACGUUAAAUUUUGUAAAUCACCUGCUGCCACAAUACAAC", "bound/input enrichment [ratio]": 0.91}
{"Sequence": "UCUAUACAAUUUUAAAAAUACUUCCUCAUAGGAUGCUUUGGCCCUUCAUCUAUUUAAUCAUAGCUACAUACCUAUUUUUUAUAAGUAGCAGUACACAUUCAAAGGGGUAUUCCUAGCUCA", "bound/input enrichment [ratio]": 0.802}
{"Sequence": "AAGAUGGUGGUUGUACAUUAUUUCAUUUAGAAAAUAUAAAAAUUCAUUUUGUUUUGAAGCUAGGUGUUAAACUGGAAUAGCUCUUUAUACCCCAGAGAAUGGGGCAGUUGUGCCCUUCCC", "bound/input enrichment [ratio]": 1.56}
{"Sequence": "GGCCUCCAGAAGGUGGAGCAUUGCAGUGGUGGCUGUUUUAGAGAUGGAUUUUCUUUUCCUUAGAGGUUUUCCCCAUAUCCUGCCUCUUCUUCCCCUUCCCAAGGUUUGACUUCUGGAUGC", "bound/input enrichment [ratio]": 0.44}
{"Sequence": "CUUUCUUGUCUUUUGACCUCAUUUCUUUAUUUUUAUCUUCAUUUUAUUUUCUUUCUUUUUCUAGUGUUGUUACCCACGCCAUUUUAUGUCUCCUUCACUGAAGGGCUAGAGUUUUAACUU", "bound/input enrichment [ratio]": 7.96}
{"Sequence": "CAACGCCAUGGUGGAAGGCUCUGAGCUCAAAAAGGUCCGAUCCAACUCCAGGGUGUAUCACCGAUACUUUCUUUUGGAUGCUGAUAUGCAGUCUCUCCGUUGGGAACCUUCAAAGAAGGA", "bound/input enrichment [ratio]": 0.337}
{"Sequence": "AAACUUGUAUUGUGGCAUAUAGUCAACAUGGAAGUAGACCAGCUCUGCCGAUUUGAAAUUUAGAUUUUUUAAUUAUGUACUGGGGACAGGUUUUUGUCGCUUUACAUUGCUUCCUAGUUU", "bound/input enrichment [ratio]": 3.95}
{"Sequence": "UUGUGGGGACUCGGGUGGGGAAAGGGAGAUAUAUAGAUGUUAUUGGCGUGUUUAAGUAUUUGGAGCUUUUUGUUUGCCCCCAUUUUUUUCUGUUUUGUAUUUUCCCUUUAAUUGAAUGCU", "bound/input enrichment [ratio]": 1.27}
{"note": "Excerpt of the above (block 4):"}
{"Sequence": "AAACUUGUAUUGUGGCAUAUAGUCAACAUGGAAGUAGACCAGCUCUGCCGAUUUGAAAUUUAGAUUUUUUAAUUAUGUACUGGGGACAGGUUUUUGUCGCUUUACAUUGCUUCCUAGUUU", "bound/input enrichment [ratio]": 3.95}
{"Sequence": "GGCCUCCAGAAGGUGGAGCAUUGCAGUGGUGGCUGUUUUAGAGAUGGAUUUUCUUUUCCUUAGAGGUUUUCCCCAUAUCCUGCCUCUUCUUCCCCUUCCCAAGGUUUGACUUCUGGAUGC", "bound/input enrichment [ratio]": 0.44}
{"Sequence": "AAGAUGGUGGUUGUACAUUAUUUCAUUUAGAAAAUAUAAAAAUUCAUUUUGUUUUGAAGCUAGGUGUUAAACUGGAAUAGCUCUUUAUACCCCAGAGAAUGGGGCAGUUGUGCCCUUCCC", "bound/input enrichment [ratio]": 1.56}
